Assay results pooled from the literature.
Every numbered part comes from another study and shows a few of its results, in no order. Changes are numbered by the printed parent chain.

Study 1 — target: UBE2W UBC core domain (UniProt Q96B02); technique: yeast two-hybrid; medium: yeast; notes: mostly zero background; reference: not given; reading: higher = stronger interaction
B1: RNF122 RING domain (UniProt Q9H9V4); chain AKKLQLYGQTCAVCLEDFKGKDELGVLPCQHAFHRKCLVKWLEVRCVCPMCNKPIASPSEAT
B2: RLIM RING domain (UniProt Q9NVW2); chain SFGENDALKTCSVCITEYTEGNKLRKLPCSHEYHVHCIDRWLSENSTCPICRRAVLASGNRE
B3: RNF2 RING domain (UniProt Q99496); chain SPRSLHSELMCPICLDMLKNTMTTKECLHRFCADCIITALRSGNKECPTCRKKLVSKRSLR
B4: ANAPC11 RING domain (UniProt Q9NYG5); chain GICRMAFNGCCPDCKVPGDDCPLVWGQCSHCFHMHCILKWLHAQQVQQHCPMCRQEWKFKE
B5: TRIM26 RING domain (UniProt Q12899); chain PLRSLEEEVTCSICLDYLRDPVTIDCGHVFCRSCTTDVRPISGSRPVCPLCKKPFKKENIRP
B6: MYCBP2 RING domain (UniProt O75592); chain TSLKQDADDMCMICFTEALSAAPAIQLDCSHIFHLQCCRRVLENRWLGPRITFGFISCPICKNKINHIVLKD
B7: TRIM54 RING domain (UniProt Q9BYV2); chain SMDNLEKQLICPICLEMFSKPVVILPCQHNLCRKCANDVFQASNPLWQSRGSTTVSSGGRFRCPSCRHEVVLDRHGV
B8: RNF31 RING domain (UniProt Q96EP0); chain AFLRRLLAQECAVCGWALPHNRMQALTSCECTICPDCFRQHFTIALKEKHITDMVCPACGRPDLTDDTQLL
Target sequence (chain): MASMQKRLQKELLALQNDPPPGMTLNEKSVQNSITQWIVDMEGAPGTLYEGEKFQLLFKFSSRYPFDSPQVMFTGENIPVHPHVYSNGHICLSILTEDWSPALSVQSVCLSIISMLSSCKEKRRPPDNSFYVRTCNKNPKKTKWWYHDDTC
Molecule | lacZ reporter activity
B1 (RNF122 RING domain) | 0
B2 (RLIM RING domain) | 0
AEADPLGRFTCPVCLEVYEKPVQVPCGHVFCSACLQECLKPKKPVCGVCRSALAPGVRAV (RNF114 RING domain (UniProt Q9Y508)) | 0
B3 (RNF2 RING domain) | 0
B4 (ANAPC11 RING domain) | 0
B5 (TRIM26 RING domain) | 0
PEELAVNNDDCAICWDSMQAARKLPCGHLFHNSCLRSWLEQDTSCPTCRMSLNIADNNR (AMFR RING domain (UniProt Q9UKV5)) | 11500
QVQSRTKIEECVVCSDKKAAVLFQPCGHMCACENCANLMKKCVQCRAVVERRVPFI (MIB1 RING domain (UniProt Q86YT6)) | 0
B6 (MYCBP2 RING domain) | 0
B7 (TRIM54 RING domain) | 0
B8 (RNF31 RING domain) | 0

Study 2 — target: CCNE1, cyclin fold, Cln2 fusion (human); technique: yeast growth competition, sequencing; medium: yeast; notes: strong parent motif; reference: not given; reading: higher = stronger binding
Parent: viral docking peptide; KGVKRKLFAEDSS; partner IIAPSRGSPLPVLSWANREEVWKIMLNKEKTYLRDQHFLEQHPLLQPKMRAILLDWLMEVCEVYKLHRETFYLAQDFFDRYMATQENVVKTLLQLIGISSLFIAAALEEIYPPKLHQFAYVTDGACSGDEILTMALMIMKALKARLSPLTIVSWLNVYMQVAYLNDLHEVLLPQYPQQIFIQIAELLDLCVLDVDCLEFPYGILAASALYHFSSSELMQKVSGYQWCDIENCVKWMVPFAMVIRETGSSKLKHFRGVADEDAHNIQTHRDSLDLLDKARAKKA
Variant | normalised enrichment score
K4S | 6.86
F8R | 0.132
A9V | 7.61
S12F | 7.33
K6R | 7.88

Study 3 — technique: aptamer microarray, sandwich; molecule type: DNA with 2'F-ANA; medium: in vitro; tested at: 200 nM; added: Cy3 exosite-II aptamer, 400 nM; reading: higher = stronger binding; sequence: GGTTGGTGTGGTTGG
Target: Prothrombin, mature alpha-thrombin (F2, Homo sapiens, UniProt P00734)
Notes: whole 15-mer aptamer, many near background
Modification | mean fluorescence intensity [a.u.]
2'F-ANA at 7 8 9 10 11 13 14 | 107
2'F-ANA at 2 3 4 6 7 8 9 10 13 14 | 153
2'F-ANA at 1 4 6 8 11 13 14 | 52.1
2'F-ANA at 1 5 7 8 10 11 | 47.1
2'F-ANA at 1 3 4 7 8 10 13 15 | 59.7
2'F-ANA at 2 3 5 6 7 8 9 10 11 12 15 | 61.6
2'F-ANA at 3 4 5 7 8 9 10 12 13 14 15 | 48.2
2'F-ANA at 1 2 6 7 8 11 14 15 | 58.6

Mixed results
Molecule | partner | test | test system | setting | measurement | result
ETFA (Homo sapiens, UniProt P13804) | ARID5B (Homo sapiens, UniProt Q14865) | cross-linking MS | cells | added: BSPNO | cross-linked residues | K301 to K767

Some of these lines once more (study 1):
Molecule | lacZ reporter activity
B8 (RNF31 RING domain) | 0
B4 (ANAPC11 RING domain) | 0
B6 (MYCBP2 RING domain) | 0
